Measured values collected from several papers.
Numbered parts are unrelated; each lists some results of a single study.
Sequence of UniProt Q13976 (whole entry, looked up): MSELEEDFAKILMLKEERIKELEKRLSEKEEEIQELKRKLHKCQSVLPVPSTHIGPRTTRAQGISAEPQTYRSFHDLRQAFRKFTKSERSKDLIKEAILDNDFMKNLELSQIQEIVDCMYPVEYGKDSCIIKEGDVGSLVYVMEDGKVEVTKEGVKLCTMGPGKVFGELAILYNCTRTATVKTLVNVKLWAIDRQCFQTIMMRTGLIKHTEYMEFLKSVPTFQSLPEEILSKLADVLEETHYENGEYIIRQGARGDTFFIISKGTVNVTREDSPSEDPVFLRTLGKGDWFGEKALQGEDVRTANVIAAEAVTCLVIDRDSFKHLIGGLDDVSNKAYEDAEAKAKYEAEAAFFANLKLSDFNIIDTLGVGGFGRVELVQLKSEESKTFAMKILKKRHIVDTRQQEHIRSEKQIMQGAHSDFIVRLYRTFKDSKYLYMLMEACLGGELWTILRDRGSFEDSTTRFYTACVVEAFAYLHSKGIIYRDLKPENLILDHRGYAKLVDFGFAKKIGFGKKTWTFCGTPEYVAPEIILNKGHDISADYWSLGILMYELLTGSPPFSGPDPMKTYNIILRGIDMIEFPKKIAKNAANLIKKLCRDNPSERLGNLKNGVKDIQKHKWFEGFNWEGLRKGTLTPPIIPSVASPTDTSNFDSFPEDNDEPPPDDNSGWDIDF
Sequence of UniProt P51957 (whole entry, looked up): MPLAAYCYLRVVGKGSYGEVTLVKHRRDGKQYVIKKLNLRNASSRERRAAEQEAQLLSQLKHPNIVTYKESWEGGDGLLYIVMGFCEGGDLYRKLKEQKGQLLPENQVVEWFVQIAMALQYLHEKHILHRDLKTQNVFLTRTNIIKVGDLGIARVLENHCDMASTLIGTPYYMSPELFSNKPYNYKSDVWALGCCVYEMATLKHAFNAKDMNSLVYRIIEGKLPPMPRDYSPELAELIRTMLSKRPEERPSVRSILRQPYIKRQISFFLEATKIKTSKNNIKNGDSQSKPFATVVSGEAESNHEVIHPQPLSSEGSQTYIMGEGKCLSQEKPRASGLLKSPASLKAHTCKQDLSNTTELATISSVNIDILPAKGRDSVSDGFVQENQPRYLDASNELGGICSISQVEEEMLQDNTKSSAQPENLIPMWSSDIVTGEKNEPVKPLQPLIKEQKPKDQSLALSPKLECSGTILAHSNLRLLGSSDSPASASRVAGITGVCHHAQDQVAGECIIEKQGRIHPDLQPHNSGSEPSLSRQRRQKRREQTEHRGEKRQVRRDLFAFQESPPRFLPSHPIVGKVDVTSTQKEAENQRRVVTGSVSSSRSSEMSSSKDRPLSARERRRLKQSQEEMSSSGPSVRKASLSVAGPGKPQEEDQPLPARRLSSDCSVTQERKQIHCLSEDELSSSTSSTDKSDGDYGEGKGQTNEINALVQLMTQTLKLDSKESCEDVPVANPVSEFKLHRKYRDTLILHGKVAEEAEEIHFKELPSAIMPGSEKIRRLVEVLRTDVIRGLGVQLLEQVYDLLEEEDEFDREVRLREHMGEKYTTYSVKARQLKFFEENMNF

Series 1 — observed: enzyme activity; action: inhibitor; concentration: 0.5 µM; measurement: remaining activity
SMILES: O=C1NC(=O)c2c1c1c3ccccc3n3c1c1c2c2ccccc2n1[C@H]1CC[C@@H]3O1
Protein kinase C delta type (PRKCD, Homo sapiens, UniProt Q05655); baseline: control: 19%
Casein kinase II subunit alpha (CSNK2A1, Homo sapiens, UniProt P68400); baseline: control: 16.7%
RAC-gamma serine/threonine-protein kinase (AKT3, Homo sapiens, UniProt Q9Y243); baseline: control: 27.1%
Tyrosine-protein kinase Lyn (LYN, Homo sapiens, UniProt P07948); baseline: control: 35.4%
Serine/threonine-protein kinase PLK2 (PLK2, Homo sapiens, UniProt Q9NYY3); baseline: control: 62.4%
Interleukin-1 receptor-associated kinase 4 (IRAK4, Homo sapiens, UniProt Q9NWZ3); baseline: control: 14%
cGMP-dependent protein kinase 1 (PRKG1, Homo sapiens, UniProt Q13976); baseline: control: 35.7%
Dual specificity mitogen-activated protein kinase kinase 6 (MAP2K6, Homo sapiens, UniProt P52564); baseline: control: 19.3%
Cyclin-dependent kinase 9, with cyclin T1 (CDK9, Homo sapiens, UniProt P50750); baseline: control: 8.52%
Mitogen-activated protein kinase kinase kinase kinase 2 (MAP4K2, Homo sapiens, UniProt Q12851); baseline: control: 3.75%
Mitogen-activated protein kinase 13 (MAPK13, Homo sapiens, UniProt O15264); baseline: control: 114%
Mast/stem cell growth factor receptor Kit (KIT, Homo sapiens, UniProt P10721); baseline: control: 60.8%
Casein kinase I isoform alpha (CSNK1A1, Homo sapiens, UniProt P48729); baseline: control: 104%
Serine/threonine-protein kinase Nek4 (NEK4, Homo sapiens, UniProt P51957); baseline: control: 22%
Mitogen-activated protein kinase kinase kinase 10 (MAP3K10, Homo sapiens, UniProt Q02779); baseline: control: 2.66%
Tyrosine-protein kinase BTK (BTK, Homo sapiens, UniProt Q06187); baseline: control: 43.3%
MAP kinase-interacting serine/threonine-protein kinase 2 (MKNK2, Homo sapiens, UniProt Q9HBH9); baseline: control: 9.71%
Leucine-rich repeat serine/threonine-protein kinase 2 (LRRK2, Homo sapiens, UniProt Q5S007); baseline: control: 1.91%
Protein kinase C iota type (PRKCI, Homo sapiens, UniProt P41743); baseline: control: 86.4%
Serine/threonine-protein kinase 38 (STK38, Homo sapiens, UniProt Q15208); baseline: control: 46.2%
Serine/threonine-protein kinase 33 (STK33, Homo sapiens, UniProt Q9BYT3); radiometric: 12.7%
Serine/threonine-protein kinase WNK2 (WNK2, Homo sapiens, UniProt Q9Y3S1); baseline: control: 93.6%
Serine/threonine-protein kinase Chk1 (CHEK1, Homo sapiens, UniProt O14757); baseline: control: 3.63%
Ephrin type-A receptor 5 (EPHA5, Homo sapiens, UniProt P54756); baseline: control: 78.7%
Mitogen-activated protein kinase 12 (MAPK12, Homo sapiens, UniProt P53778); baseline: control: 113%

Series 2 — action: agonist; measurement: EC50
Target: Beta-1 adrenergic receptor (ADRB1, Homo sapiens, UniProt P08588)
Sequence of UniProt P08588 (whole entry, looked up): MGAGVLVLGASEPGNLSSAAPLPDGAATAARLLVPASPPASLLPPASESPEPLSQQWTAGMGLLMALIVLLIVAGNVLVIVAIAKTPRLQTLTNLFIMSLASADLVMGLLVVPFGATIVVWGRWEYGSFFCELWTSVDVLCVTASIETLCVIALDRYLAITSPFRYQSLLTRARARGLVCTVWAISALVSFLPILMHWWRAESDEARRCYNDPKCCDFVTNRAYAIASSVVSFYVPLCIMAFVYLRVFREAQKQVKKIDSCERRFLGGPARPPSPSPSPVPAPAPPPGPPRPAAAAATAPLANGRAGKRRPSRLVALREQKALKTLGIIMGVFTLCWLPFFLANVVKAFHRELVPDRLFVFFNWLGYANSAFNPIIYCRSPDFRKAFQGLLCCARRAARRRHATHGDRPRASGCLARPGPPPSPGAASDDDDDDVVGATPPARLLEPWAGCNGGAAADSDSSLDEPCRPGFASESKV
CN(C)C(=O)Oc1cc(OC(=O)N(C)C)cc(C(O)CNC(C)(C)C)c1 (centres unmarked): ≥ 100 µM
COCCN1CCN(c2ccccc2OC)CC1: ≥ 100 µM
CCCN(CCC)[C@H]1CCc2c(O)cccc2C1: ≥ 100 µM
O=C1C=CC(=O)c2c1ccc1c2ccc2ccccc21: ≥ 100 µM
Oc1ccc(OC[C@@H]2CNCC[C@H]2c2ccc(F)cc2)cc1O: ≥ 100 µM
c1cc2cc(N3CCNCC3)ccc2cn1: 2 µM

Series 3 — medium: plasma; route: oral; measurement: AUC
SMILES: CNC(=O)c1ccc(-c2cnn3ccc(C(=O)N(C)c4ccc(Cl)c(C(=O)O)c4)cc23)cc1
Wistar rat, both sexes; 1000 mg/kg/day, 2 weeks, GLP toxicology study: 1430 ng·h/mL
Wistar rat, both sexes; 50 mg/kg/day, 2 weeks, GLP toxicology study: 179 ng·h/mL
beagle dog; 15 mg/kg/day, multiple doses: 35.5 ng·h/mL
bovine; 20 mg/kg/day: 103 ng·h/mL
Wistar rat, both sexes; 250 mg/kg/day, 2 weeks, GLP toxicology study: 651 ng·h/mL
beagle dog; 250 mg/kg/day, multiple doses: 126 ng·h/mL
beagle dog; 1000 mg/kg/day, multiple doses: 301 ng·h/mL
beagle dog; 50 mg/kg/day, multiple doses: 58.2 ng·h/mL

Series 4 — concentration: 10 µM; measurement: inhibition
SMILES: COc1ccc2c(c1)O[C@@H](c1ccc(OC)c(OC)c1)C[C@H]2NC(=O)C1(c2ccc3c(c2)OC(F)(F)O3)CC1
Sodium-dependent dopamine transporter (SLC6A3, Homo sapiens, UniProt Q01959); binding, radioligand binding: -12.2%
Sodium-dependent noradrenaline transporter (SLC6A2, Homo sapiens, UniProt P23975); binding, radioligand binding: -14.1%
Mu-type opioid receptor (OPRM1, Homo sapiens, UniProt P35372); binding, radioligand binding: 4.18%
5-hydroxytryptamine receptor 1A (HTR1A, Homo sapiens, UniProt P08908); ligand displacement: -32.3%
Muscarinic acetylcholine receptor M3 (CHRM3, Homo sapiens, UniProt P20309); binding, radioligand binding: 2.35%
Kappa-type opioid receptor (OPRK1, Homo sapiens, UniProt P41145); binding, radioligand binding: 27.4%
D(1B) dopamine receptor (DRD5, Homo sapiens, UniProt P21918); binding, radioligand binding: 20%
Sodium-dependent serotonin transporter (SLC6A4, Homo sapiens, UniProt P31645); binding, radioligand binding: 5.75%

Series 5 — observed: enzyme activity; action: inhibitor; concentration: 10 µM; measurement: inhibition
Target: Calcium/calmodulin-dependent protein kinase type II subunit alpha (CAMK2A, Homo sapiens, UniProt Q9UQM7)
Sequence of UniProt Q9UQM7 (whole entry, looked up): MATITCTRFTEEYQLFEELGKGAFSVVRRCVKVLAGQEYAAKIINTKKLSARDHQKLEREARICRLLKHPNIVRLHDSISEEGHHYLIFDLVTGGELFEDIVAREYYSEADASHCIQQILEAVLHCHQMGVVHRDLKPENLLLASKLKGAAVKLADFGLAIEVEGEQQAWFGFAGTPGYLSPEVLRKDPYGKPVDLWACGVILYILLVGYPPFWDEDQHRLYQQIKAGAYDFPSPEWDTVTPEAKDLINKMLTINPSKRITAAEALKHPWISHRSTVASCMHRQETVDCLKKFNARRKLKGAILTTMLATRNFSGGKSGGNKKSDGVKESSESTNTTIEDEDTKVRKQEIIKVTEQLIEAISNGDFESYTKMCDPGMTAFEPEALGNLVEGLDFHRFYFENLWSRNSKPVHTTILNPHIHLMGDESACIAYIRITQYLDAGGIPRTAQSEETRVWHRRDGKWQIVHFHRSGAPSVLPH
CC1(C)COC(=O)C1O (racemic): -12%
CN1C(=O)CCS(=O)(=O)C1c1ccc(Cl)cc1 (centres unmarked): -7%
CC1=C[C@@H]2C(=O)[C@]3(C=C(C)[C@H](O)[C@@]3(O)[C@@H]1O)[C@H](C)C[C@@H]1[C@H]2C1(C)C: -28%
CO[C@@H]1C[C@@H](C[C@H]2CC[C@H](C)[C@H]([C@@H](C)C(=O)O)O2)O[C@]2(O[C@](C)([C@H]3CC[C@@](C)([C@@H]4O[C@@H]([C@H]5O[C@@](O)(CO)[C@H](C)C[C@@H]5C)C[C@@H]4C)O3)C[C@H]2C)[C@@H]1C: -39%
COc1ccc(C(=O)O[C@H]2CC[C@@]3(C)[C@@H]4CC[C@H]5[C@]6(O)C[C@H](O)[C@@]7(O)[C@@H](CN8C[C@@H](C)CC[C@H]8[C@@]7(C)O)[C@]6(O)C[C@@]53O[C@]24O)cc1OC: 35%

Series 6 — observed: enzyme activity; concentration: concentration not given; setting: without ssDNA; measurement: remaining activity
Target: DNA polymerase theta, helicase domain (POLQ, Homo sapiens, UniProt O75417)
Sequence of UniProt O75417 (whole entry, looked up): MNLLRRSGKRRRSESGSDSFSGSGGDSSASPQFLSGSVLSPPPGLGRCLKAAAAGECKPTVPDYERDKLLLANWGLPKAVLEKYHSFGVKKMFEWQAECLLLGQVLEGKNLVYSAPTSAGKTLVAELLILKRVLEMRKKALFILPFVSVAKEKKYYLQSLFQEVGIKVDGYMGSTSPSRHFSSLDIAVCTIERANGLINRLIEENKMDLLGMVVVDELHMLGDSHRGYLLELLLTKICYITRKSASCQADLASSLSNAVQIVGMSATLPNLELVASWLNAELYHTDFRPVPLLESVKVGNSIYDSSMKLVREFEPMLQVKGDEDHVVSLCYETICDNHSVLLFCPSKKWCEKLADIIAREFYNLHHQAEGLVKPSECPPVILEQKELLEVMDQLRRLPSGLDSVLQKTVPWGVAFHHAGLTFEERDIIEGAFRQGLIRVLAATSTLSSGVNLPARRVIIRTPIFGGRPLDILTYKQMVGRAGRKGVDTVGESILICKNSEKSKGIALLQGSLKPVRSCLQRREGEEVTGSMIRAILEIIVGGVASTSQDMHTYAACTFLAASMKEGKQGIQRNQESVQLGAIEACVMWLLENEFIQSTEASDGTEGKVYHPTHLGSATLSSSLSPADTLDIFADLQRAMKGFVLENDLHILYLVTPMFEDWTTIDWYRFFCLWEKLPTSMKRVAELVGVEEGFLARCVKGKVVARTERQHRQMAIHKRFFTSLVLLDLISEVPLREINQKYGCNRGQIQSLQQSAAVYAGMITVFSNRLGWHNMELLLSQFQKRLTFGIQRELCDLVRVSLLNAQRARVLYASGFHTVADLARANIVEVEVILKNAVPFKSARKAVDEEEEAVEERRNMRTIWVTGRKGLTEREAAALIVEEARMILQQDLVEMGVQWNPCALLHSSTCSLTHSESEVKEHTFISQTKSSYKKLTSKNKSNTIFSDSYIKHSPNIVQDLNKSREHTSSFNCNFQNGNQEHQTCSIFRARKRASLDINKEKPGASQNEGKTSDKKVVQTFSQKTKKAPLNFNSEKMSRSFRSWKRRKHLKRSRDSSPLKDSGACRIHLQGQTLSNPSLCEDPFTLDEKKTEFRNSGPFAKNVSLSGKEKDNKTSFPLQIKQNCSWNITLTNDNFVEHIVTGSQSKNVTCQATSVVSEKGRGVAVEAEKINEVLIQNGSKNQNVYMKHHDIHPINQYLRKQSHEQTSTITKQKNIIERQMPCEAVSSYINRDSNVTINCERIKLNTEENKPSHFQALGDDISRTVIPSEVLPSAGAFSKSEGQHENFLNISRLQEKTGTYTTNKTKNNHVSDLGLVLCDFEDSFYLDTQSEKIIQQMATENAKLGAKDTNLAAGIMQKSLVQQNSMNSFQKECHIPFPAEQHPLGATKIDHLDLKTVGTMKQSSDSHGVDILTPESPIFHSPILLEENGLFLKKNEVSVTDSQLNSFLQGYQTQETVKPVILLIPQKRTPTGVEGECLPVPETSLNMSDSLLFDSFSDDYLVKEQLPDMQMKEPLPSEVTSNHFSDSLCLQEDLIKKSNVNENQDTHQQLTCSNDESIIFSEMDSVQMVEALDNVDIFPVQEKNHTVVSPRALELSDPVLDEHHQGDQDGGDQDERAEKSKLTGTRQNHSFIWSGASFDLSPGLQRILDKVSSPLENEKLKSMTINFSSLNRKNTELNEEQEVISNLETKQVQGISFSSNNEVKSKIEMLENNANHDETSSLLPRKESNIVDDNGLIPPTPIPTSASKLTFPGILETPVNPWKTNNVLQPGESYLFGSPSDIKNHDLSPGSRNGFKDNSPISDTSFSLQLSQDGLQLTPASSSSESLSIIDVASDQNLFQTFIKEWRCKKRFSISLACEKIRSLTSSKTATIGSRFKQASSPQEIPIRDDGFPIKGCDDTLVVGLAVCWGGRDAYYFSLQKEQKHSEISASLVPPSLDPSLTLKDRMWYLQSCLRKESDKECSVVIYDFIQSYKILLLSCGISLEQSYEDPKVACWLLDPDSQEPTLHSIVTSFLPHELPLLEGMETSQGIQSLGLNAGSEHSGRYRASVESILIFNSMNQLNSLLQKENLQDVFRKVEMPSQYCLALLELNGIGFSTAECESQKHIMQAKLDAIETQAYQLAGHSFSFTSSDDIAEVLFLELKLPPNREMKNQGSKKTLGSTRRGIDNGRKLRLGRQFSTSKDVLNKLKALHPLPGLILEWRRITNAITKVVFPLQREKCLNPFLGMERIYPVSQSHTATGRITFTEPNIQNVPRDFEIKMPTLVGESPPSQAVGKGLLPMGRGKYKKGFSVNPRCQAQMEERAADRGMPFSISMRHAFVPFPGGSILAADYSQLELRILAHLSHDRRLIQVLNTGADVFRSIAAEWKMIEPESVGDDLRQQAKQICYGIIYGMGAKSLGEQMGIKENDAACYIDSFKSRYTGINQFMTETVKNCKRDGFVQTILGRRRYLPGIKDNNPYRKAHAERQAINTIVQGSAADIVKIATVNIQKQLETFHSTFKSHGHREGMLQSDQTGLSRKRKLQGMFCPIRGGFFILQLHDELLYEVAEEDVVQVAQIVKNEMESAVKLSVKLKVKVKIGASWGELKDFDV
COc1cc(C(c2c(O)c3ccccc3oc2=O)c2c(C)n(C)n(-c3ccccc3)c2=O)ccc1OCC(=O)O (centres unmarked): 77.1%
CSc1ccc(C(c2c(O)c3ccccc3oc2=O)c2c(C)n(C)n(-c3ccccc3)c2=O)cc1 (centres unmarked): 106%
CCN(CC)C(=O)c1ccc2c(c1)N(Cc1ccc(C(F)(F)F)cc1)C(=O)c1ccccc1S2: 30.2%
CN(N=O)c1ccc(O)c(O)c1: 94.9%

Repeated from above (series 1):
Serine/threonine-protein kinase PLK2 (PLK2, Homo sapiens, UniProt Q9NYY3); baseline: control: 62.4%
Dual specificity mitogen-activated protein kinase kinase 6 (MAP2K6, Homo sapiens, UniProt P52564); baseline: control: 19.3%
Serine/threonine-protein kinase 38 (STK38, Homo sapiens, UniProt Q15208); baseline: control: 46.2%
Serine/threonine-protein kinase 33 (STK33, Homo sapiens, UniProt Q9BYT3); radiometric: 12.7%
Serine/threonine-protein kinase Nek4 (NEK4, Homo sapiens, UniProt P51957); baseline: control: 22%
Tyrosine-protein kinase BTK (BTK, Homo sapiens, UniProt Q06187); baseline: control: 43.3%
Casein kinase I isoform alpha (CSNK1A1, Homo sapiens, UniProt P48729); baseline: control: 104%
